Assay results of several laboratories.
Lines come from different studies, so protocols differ. Numbers after ± are the reported error.

[11CH3]Oc1ccc(Cc2cn[nH]c2)nc1-c1cccc([N+](=O)[O-])c1
remaining parent (rat plasma in vitro; 30 min, room temperature): 97.2%

COc1c2c(cc3oc(C)cc(=O)c13)O[C@H](C(C)(C)O[C@@H]1O[C@H](CO)[C@@H](O)[C@H](O)[C@H]1O)C2
remaining concentration (simulated intestinal fluid with pancreatin; 220.99 nmol/L, 2 h, pH 6.8, 37 °C): 120 nmol/mL

CCCC1OC2CC3C4CCC5=CC(=O)C=CC5(C)C4C(O)CC3(C)C2(C(=O)COC(=O)CN)O1 (stereo not shown)
remaining conjugate (aqueous buffer; 200 µg/mL, 48 h, pH 1.2, 37 °C): 76.2%

C=CC(=O)Nc1cc(Nc2nccc(-c3cn(C)c4ccccc34)n2)c(OCC(F)(F)F)nc1N(C)CCN(C)C
remaining parent compound (LC-MS; human liver microsomes; 3 µM, 60 min, added: sulfaphenazole 6 µM; baseline: no inhibitor): 58%

CC[C@H](C)[C@H](NC(=O)CNC(=O)CNC(=O)c1ccc2c(c1)C(=O)OC21c2ccc(O)cc2Oc2cc(O)ccc21)C(=O)N[C@@H](Cc1ccc(O)cc1)C(=O)N[C@@H](C)C(=O)N(C)CC(=O)N1CCC[C@H]1C(=O)N(C)[C@@H](Cc1ccccc1)C(=O)N[C@@H](CCCCN)C(=O)N[C@@H](CCCCN)C(=O)N[C@@H](CCCCN)C(=O)N[C@@H](C)C(N)=O
remaining peptide (CE-LIF; Baf/BCR-ABL cytosolic lysate; 1 µM, 60 min, 37 °C): 43 ± 10%

NC12CNCCNCC(NCc3ccc(CNC(=O)CCCC(=O)NCc4ccc(-c5nncnn5)cc4)cc3)(CNCCNC1)CNCCNC2.[64Cu+2]
remaining intact compound (PBS; 4 h, pH 7.4, 37 °C): 93.3 ± 0.5%

C=CC(=O)Nc1cc(Nc2nccc(-c3cn(C)c4ccccc34)n2)c(O)nc1N(C)CCN(C)C
remaining parent compound (LC-MS; human liver microsomes; 3 µM, 60 min, added: α-naphthoflavone 2 µM; baseline: no inhibitor): 147%

CCCC1OC2CC3C4CCC5=CC(=O)C=CC5(C)C4C(O)CC3(C)C2(C(=O)COC(=O)C(C)N)O1 (stereo not shown)
remaining conjugate (rat plasma diluted 5.7-fold; 200 µg/mL, 12 h, 37 °C, 2% DMSO): < 6%

CC(C)Oc1ncnc2c1c(Cl)cn2[C@@H]1O[C@H](CO)[C@@H](O)[C@H]1O
remaining parent compound (horse liver microsomes; 30 min): ≥ 50%

CC[C@H](C)[C@@H]1NC(=O)[C@H](CCCCN)NC(=O)[C@H](CCCCN)NC(=O)[C@H](Cc2ccc(O)cc2)NC(=O)[C@H](CC(C)C)NC(=O)[C@@H]2CCCN2C(=O)CNC(=O)CNC(=O)[C@@H](NC(=O)CN)CSSC[C@@H](C(=O)N[C@@H](CCC(=O)O)C(=O)N[C@@H](CO)C(N)=O)NC(=O)[C@H](CC(C)C)NC(=O)[C@H](CCCCN)NC(=O)[C@H](CCCCN)NC(=O)[C@H]([C@@H](C)CC)NC(=O)[C@H]([C@@H](C)CC)NC(=O)[C@H](CCCCN)NC(=O)[C@H](CCCCN)NC(=O)[C@H](Cc2ccc(O)cc2)NC(=O)[C@H](CC(C)C)NC(=O)[C@@H]2CCCN2C(=O)[C@H](C)NC(=O)CNC(=O)CNC(=O)[C@H](CO)NC(=O)CNC(=O)CNC(=O)[C@H](CO)NC(=O)[C@H](CCC(=O)O)NC(=O)[C@H](CC(C)C)NC(=O)[C@H](CC(C)C)NC(=O)[C@H](CCCCN)NC(=O)[C@H](CCCCN)NC(=O)[C@H]([C@@H](C)CC)NC1=O
remaining intact peptide (25% human serum; 50 µM, 24 h; baseline: 0 h control): 53.7 ± 3.9%

CN(Cc1ccc(F)cc1)Cc1cc(=O)oc2cc(O)ccc12
remaining intact compound (human serum; 0.5 mM, 30 min): > 99%

N[C@@H](CC(=O)O)C(=O)N1CCC[C@H]1C(=O)NCC(=O)NCC(=O)O
remaining peptide (diketopiperazine formation, ESI-MS; 1-propanol; 5 µM, 90 min, 70 °C, 0.5% acetic acid; baseline: initial signal): ~33%

CNC(=O)c1ccc(N2CCN(Cc3ccc4nc(C)c(=O)[nH]c4c3F)CC2)c([18F])n1
remaining parent (non-human primate liver microsomes; 90 min): > 95%

N=C(N)NCCC[C@H](N)C(=O)N1CCC[C@H]1C(=O)NCC(=O)NCC(=O)O
remaining peptide (diketopiperazine formation, ESI-MS; 1-propanol; 5 µM, 90 min, 70 °C, 0.5% acetic acid; baseline: initial signal): 29%

C[C@@H]1NC(=O)CNC(=O)c2ccc(cc2)S(=O)(=O)Oc2ccc(cc2)C[C@@H](C(N)=O)NC(=O)CNC1=O
remaining intact peptide (PBS; 1 mg/mL, 24 h, pH 9, 65 °C): 90%

C[C@@H](O)[C@H](N)C(=O)N1CCC[C@H]1C(=O)NCC(=O)NCC(=O)O
remaining peptide (diketopiperazine formation, ESI-MS; 1-propanol; 5 µM, 90 min, 70 °C, 0.5% acetic acid; baseline: initial signal): 59%

CCCC1OC2CC3C4CCC5=CC(=O)C=CC5(C)C4C(O)CC3(C)C2(C(=O)COC(=O)CN(C)C)O1 (stereo not shown)
remaining conjugate (aqueous buffer; 200 µg/mL, 48 h, pH 1.2, 37 °C): 88.5%

CCCC(CCC)NC(=O)c1ccc(OC)c(O)c1
remaining parent compound (rat liver microsomes; 1.0 µM, 60 min, pH 7.4): 47.7%

O=C([O-])CN1CCN(CC(=O)[O-])CCN(CC(=O)[O-])C(Cc2ccc(NC(=S)NCCc3ccc4c(c3)C3C=CCC3C(c3cc5c(cc3Br)OCO5)N4)cc2)CN(CC(=O)[O-])CC1.[111In+3] (stereo not shown)
remaining intact compound (PBS; up to 4 days, pH 7.4, 37 °C, In(III) complex): > 90%

O=C([O-])CN1CCN(CC(=O)[O-])CC(Cc2ccc(NC(=S)NCCOCCOCCOCCOCCOCCOCCOCCNC(=O)CCCC(=O)NCc3ccc(-c4nncnn4)cc3)cc2)N(CC(=O)[O-])CC1.[64Cu+2] (stereo not shown)
remaining intact compound (PBS; 2 h, pH 7.4, 37 °C): 87 ± 1.3%

C=CC(=O)Nc1cc(Nc2nccc(-c3cn(C)c4ccccc34)n2)c(OCC(F)(F)F)nc1NC
remaining parent compound (LC-MS; human liver microsomes; 3 µM, 60 min, added: ticlopidine 24 µM; baseline: no inhibitor): 62%

COc1cc(NC(C)=O)c2c(c1O)-c1c(OC)c(OC)cc3c1C(C2)N(C)CC3 (stereo not shown)
remaining compound (rat kidney homogenate; 5 µg/mL, time not given, three freeze-thaw cycles): 95.3 ± 1.1%

CC[C@H](C)[C@H](NC(=O)CNC(=O)CNC(=O)c1ccc2c(c1)C(=O)OC21c2ccc(O)cc2Oc2cc(O)ccc21)C(=O)N[C@@H](Cc1ccc(O)cc1)C(=O)N[C@@H](C)C(=O)N(C)CC(=O)N1CCC[C@H]1C(=O)N(C)[C@@H](Cc1ccccc1)C(=O)N[C@@H](CCCCN)C(=O)N[C@@H](CCCCN)C(=O)N[C@@H](CCCCN)C(N)=O
remaining peptide (CE-LIF; Baf/BCR-ABL cytosolic lysate; 1 µM, 60 min, 37 °C): 32 ± 3%

CC(C)C[C@H](NC(=O)[C@@H]1CCCN1C(=O)[C@H](CCCCNC(=O)CN1CCN(CC(=O)O)CCN(CC(=O)O)CCN(CC(=O)O)CC1)NC(=O)CC[C@@H]1NC(=O)[C@@H](Cc2ccccc2)NC(=O)[C@H](CC(=O)O)NC(=O)CNC(=O)[C@H](CCCNC(=N)N)NC1=O)C(=O)NCC(=O)N[C@H](C(=O)N[C@@H](CCCNC(=N)N)C(=O)N[C@@H](Cc1ccc(O)cc1)C(=O)O)C(C)C [copper-64 labelled]
remaining intact peptide (radio-HPLC; rat serum; time not given, 37 °C, added: ilomastat 0.73 mM): 94%

C=CC(=O)Nc1cc(Nc2nccc(-c3cn(C)c4ccccc34)n2)c(OCC(F)(F)F)nc1N(C)CCNC
remaining parent compound (LC-MS; human liver microsomes; 3 µM, 60 min, added: sulfaphenazole 6 µM; baseline: no inhibitor): 55%

C=C1C[C@@]23CC[C@H]4[C@@](C)(CCC[C@@]4(C)C(=O)O[C@@H]4O[C@H](CO)[C@@H](O)[C@H](O)[C@H]4O)[C@@H]2CC[C@]1(O[C@@H]1O[C@H](CO[C@H]2O[C@H](CO)[C@@H](O)[C@H](O)[C@H]2O)[C@@H](O)[C@H](O)[C@H]1O[C@@H]1O[C@H](CO)[C@@H](O)[C@H](O)[C@H]1O)C3
remaining concentration (aqueous solutions; range over 1 to 2% w/v, 1 months, 25 °C; baseline: initial): > 90%

CCCC(CCC)NC(=O)c1ccc(O)c(OC)c1
remaining parent compound (rat liver microsomes; 1.0 µM, 60 min, pH 7.4): 55.7%

NC(=O)CNC(=O)[C@@H]1CCCN1C(=O)[C@@H]1CCCN1C(=O)[C@@H]1C[C@@H](O)CN1C(=O)[C@@H]1C[C@@H](O)CN1C(=O)CNC(=O)CNC(=O)[C@@H]1CCCN1C(=O)[C@@H]1C[C@@H](O)CN1C(=O)[C@@H]1C[C@@H](O)CN1C(=O)CNC(=O)[C@@H]1CCCN1C(=O)[C@@H]1CCCN1C(=O)[C@@H]1C[C@@H](O)CN1C(=O)CNC(=O)[C@@H]1C[C@@H](O)CN1C(=O)CNC(=O)[C@@H]1C[C@@H](O)CN1C(=O)[C@@H]1CCCN1C(=O)[C@@H]1C[C@@H](O)CN1C(=O)[C@@H]1CCCN1C(=O)CNC(=O)[C@@H]1CCCN1C(=O)CNC(=O)[C@@H]1C[C@@H](O)CN1C(=O)CNC(=O)[C@@H]1CCCN1
remaining intact peptide (RP-HPLC; 25% mouse serum in PBS; 50 µM, 24 h, 37 °C; baseline: zero time point): 76.9%

CC(C)(O)[C@H]1Cc2cc3ccc(=O)oc3cc2O1
remaining analyte (extracted rat plasma QC samples; 24 h, 4 °C, post-preparative storage): 101 ± 6.6%

O=C([O-])CN1CCN(CC(=O)[O-])CCN(CC(=O)NCCc2ccc3c(c2)C2C=CCC2C(c2cc4c(cc2Br)OCO4)N3)CCN(CC(=O)[O-])CC1.[111In+3] (stereo not shown)
remaining intact compound (mouse plasma; up to 4 days, 37 °C, In(III) complex): > 90%

Cn1cc(-c2ccnc(N)n2)c2ccccc21
remaining parent compound (LC-MS; human liver microsomes; 3 µM, 60 min, added: ticlopidine 24 µM; baseline: no inhibitor): 94%

Repeated from above:
CCCC1OC2CC3C4CCC5=CC(=O)C=CC5(C)C4C(O)CC3(C)C2(C(=O)COC(=O)CN(C)C)O1 (stereo not shown)
remaining conjugate (aqueous buffer; 200 µg/mL, 48 h, pH 1.2, 37 °C): 88.5%

CCCC(CCC)NC(=O)c1ccc(OC)c(O)c1
remaining parent compound (rat liver microsomes; 1.0 µM, 60 min, pH 7.4): 47.7%
